Measurements from different studies.
Compare with care: the assays were run in different laboratories. “And” joins repeats or separate records; there may be more than shown. Numbers after ± are the reported error.
INS: Insulin (INS, Bos taurus, UniProt P01317)
UniProt P01317, sequence (whole entry, looked up): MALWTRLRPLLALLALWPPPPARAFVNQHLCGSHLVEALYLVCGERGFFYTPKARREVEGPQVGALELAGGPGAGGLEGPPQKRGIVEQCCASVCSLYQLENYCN
CASP9: Caspase-9 (CASP9, Homo sapiens, UniProt P55211)
UniProt P55211, sequence (whole entry, looked up): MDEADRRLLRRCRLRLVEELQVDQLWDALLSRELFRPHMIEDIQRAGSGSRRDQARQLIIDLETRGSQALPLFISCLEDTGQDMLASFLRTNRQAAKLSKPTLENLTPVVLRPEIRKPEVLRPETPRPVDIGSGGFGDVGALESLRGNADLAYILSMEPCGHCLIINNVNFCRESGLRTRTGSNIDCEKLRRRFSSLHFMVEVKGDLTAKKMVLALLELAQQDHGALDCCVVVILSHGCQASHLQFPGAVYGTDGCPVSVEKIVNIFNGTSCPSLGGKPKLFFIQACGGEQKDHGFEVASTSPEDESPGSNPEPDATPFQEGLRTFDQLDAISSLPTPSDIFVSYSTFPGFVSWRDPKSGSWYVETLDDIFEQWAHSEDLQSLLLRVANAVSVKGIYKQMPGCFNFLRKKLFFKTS
USP5: Ubiquitin carboxyl-terminal hydrolase 5 (USP5, Homo sapiens, UniProt P45974)
UniProt P45974, sequence (whole entry, looked up): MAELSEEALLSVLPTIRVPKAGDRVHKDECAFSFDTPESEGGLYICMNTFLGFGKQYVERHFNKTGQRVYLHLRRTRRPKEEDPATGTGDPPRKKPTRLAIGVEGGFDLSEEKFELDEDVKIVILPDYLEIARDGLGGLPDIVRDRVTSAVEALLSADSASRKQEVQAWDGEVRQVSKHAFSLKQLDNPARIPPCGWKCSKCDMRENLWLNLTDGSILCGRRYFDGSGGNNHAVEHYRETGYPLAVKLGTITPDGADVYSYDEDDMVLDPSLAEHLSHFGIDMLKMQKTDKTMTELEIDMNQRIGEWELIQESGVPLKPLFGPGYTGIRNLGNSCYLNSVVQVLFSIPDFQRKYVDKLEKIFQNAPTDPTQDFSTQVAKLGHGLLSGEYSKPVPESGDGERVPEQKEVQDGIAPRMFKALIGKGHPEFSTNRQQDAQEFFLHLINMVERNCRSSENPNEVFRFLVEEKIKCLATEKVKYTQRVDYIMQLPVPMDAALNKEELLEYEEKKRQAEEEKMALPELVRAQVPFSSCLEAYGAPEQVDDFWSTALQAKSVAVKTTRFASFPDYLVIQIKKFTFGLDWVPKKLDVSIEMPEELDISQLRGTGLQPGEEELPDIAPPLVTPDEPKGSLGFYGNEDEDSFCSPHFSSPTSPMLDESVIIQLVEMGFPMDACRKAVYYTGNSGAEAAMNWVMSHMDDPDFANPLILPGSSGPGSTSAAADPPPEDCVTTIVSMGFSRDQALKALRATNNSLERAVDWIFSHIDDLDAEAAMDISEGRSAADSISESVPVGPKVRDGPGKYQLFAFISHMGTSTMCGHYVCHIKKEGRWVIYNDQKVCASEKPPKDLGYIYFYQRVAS
CASP4: Caspase-4 (CASP4, Homo sapiens, UniProt P49662)
UniProt P49662, sequence (whole entry, looked up): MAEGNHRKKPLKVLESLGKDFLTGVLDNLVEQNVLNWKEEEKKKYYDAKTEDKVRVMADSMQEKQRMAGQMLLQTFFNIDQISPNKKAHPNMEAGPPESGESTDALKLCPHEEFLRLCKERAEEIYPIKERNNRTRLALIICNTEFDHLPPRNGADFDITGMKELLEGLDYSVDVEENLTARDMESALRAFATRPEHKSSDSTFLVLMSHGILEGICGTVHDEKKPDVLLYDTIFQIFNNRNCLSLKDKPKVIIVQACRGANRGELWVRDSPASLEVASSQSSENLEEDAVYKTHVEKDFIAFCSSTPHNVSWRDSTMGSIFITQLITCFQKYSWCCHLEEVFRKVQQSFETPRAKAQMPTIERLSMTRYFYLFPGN
T1: preQ1 riboswitch RNA A13 2-aminopurine (Thermoanaerobacter tengcongensis); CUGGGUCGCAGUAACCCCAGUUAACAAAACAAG
UniProt Q92633, sequence (whole entry, unmodified, looked up): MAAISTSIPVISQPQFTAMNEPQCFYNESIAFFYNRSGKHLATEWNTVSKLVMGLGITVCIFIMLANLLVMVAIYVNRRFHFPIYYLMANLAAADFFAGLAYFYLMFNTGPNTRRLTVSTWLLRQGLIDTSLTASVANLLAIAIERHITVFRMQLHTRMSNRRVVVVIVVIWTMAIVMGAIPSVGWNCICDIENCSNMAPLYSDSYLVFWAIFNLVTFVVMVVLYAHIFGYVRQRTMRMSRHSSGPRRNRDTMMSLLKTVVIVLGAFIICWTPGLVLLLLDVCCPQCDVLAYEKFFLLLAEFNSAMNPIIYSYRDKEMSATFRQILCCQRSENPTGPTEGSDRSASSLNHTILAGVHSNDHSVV
UniProt P45983, sequence (whole entry, looked up): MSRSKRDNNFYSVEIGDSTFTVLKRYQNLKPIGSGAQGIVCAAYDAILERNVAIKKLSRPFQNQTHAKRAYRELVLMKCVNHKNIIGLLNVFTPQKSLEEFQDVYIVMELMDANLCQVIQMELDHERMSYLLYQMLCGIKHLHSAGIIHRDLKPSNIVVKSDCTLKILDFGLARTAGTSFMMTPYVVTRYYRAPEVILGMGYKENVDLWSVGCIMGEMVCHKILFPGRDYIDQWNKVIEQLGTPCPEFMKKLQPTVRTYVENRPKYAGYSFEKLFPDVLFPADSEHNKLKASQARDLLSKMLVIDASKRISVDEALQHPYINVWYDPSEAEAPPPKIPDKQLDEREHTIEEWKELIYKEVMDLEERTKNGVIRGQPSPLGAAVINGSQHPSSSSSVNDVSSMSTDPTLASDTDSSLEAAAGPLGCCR
UniProt P17706, sequence (whole entry, looked up): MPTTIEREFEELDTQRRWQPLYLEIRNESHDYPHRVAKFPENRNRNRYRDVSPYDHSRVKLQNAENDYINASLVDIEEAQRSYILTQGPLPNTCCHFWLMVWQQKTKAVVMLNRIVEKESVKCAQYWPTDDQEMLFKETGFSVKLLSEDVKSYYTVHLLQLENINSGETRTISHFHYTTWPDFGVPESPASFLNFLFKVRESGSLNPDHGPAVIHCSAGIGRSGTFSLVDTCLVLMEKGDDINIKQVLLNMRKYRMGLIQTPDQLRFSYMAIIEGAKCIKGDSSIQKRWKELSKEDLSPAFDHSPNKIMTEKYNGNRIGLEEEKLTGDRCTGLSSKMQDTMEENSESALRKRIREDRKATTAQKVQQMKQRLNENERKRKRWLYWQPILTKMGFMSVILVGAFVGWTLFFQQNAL
UniProt P55317, sequence (whole entry, unmodified, looked up): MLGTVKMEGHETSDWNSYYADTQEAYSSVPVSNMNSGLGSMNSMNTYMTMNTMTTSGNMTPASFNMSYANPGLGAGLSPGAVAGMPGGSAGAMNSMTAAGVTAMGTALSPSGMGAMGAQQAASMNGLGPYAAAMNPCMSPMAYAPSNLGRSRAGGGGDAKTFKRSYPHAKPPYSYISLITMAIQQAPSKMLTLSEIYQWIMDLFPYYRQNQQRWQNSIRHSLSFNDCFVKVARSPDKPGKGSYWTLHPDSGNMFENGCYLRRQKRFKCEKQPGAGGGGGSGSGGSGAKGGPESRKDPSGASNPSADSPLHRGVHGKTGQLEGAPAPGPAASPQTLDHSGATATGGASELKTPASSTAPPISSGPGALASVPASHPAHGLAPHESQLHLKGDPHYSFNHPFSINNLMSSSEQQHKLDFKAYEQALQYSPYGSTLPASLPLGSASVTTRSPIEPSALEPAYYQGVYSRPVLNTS
UniProt O75762, sequence (whole entry, unmodified, looked up): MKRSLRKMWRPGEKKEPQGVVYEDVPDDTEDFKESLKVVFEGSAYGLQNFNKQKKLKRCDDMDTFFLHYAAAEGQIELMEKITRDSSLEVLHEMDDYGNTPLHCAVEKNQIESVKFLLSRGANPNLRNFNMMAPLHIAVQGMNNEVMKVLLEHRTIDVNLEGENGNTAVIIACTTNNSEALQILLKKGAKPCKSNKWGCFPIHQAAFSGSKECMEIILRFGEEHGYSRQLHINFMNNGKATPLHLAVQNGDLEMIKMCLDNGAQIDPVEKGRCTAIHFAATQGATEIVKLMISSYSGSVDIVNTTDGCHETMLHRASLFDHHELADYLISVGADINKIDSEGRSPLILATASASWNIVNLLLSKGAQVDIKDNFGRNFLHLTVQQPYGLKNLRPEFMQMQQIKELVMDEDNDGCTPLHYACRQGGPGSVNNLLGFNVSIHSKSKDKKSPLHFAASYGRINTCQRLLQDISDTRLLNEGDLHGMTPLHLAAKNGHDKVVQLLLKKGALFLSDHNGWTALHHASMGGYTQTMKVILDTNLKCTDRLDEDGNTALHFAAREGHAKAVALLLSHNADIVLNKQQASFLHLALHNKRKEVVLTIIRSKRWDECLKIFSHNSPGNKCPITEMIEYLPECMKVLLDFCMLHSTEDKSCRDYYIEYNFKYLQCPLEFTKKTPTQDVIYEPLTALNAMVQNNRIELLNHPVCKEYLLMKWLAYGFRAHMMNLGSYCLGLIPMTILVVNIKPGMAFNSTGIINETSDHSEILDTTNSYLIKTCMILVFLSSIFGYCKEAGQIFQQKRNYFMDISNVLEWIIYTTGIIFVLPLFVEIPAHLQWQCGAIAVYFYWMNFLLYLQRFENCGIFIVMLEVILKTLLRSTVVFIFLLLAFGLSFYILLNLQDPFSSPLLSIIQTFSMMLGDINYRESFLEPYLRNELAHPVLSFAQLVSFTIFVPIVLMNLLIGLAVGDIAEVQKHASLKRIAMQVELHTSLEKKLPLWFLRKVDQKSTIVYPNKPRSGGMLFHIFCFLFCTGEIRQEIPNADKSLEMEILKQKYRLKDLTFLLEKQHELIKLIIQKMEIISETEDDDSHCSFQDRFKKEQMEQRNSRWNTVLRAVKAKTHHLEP
UniProt P50052, sequence (whole entry, looked up): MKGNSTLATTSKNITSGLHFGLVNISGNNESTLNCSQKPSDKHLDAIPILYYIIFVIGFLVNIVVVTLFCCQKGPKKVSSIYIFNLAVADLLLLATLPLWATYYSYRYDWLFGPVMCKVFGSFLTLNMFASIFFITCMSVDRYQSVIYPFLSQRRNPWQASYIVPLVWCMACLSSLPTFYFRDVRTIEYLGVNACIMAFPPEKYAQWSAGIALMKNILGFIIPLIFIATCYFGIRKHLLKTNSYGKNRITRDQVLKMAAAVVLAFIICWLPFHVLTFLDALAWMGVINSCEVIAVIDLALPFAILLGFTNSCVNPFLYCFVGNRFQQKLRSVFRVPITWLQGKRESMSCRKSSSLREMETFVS

`CC(C)C[C@H](NC(=O)[C@@H](NC(=O)[C@H](Cc1ccccc1)NC(=O)c1ccc(C(C)(C)C)cc1)C(C)C)C(=O)N[C@@H](CCCCN(C)C1CC2CCC1C2)C(=O)N[C@@H](CO)C(N)=O` (some centres unmarked) gave a selectivity ratio of 21 (Chromobox protein homolog 8 (Homo sapiens, UniProt Q9HC52); TR-FRET displacement; reference: IC50 CBX7 over IC50 CBX8).
`N#CN1CC[C@H](C(=O)Nc2nc3c(s2)CN(C(=O)Cn2cc(COCCOCCOCCOCCNC(=O)CCCC[C@@H]4SC[C@@H]5NC(=O)N[C@@H]54)nn2)CC3)C1` has an iBAQ abundance of 3.83e+08 (Isochorismatase domain-containing protein 2 (ISOC2, Homo sapiens, UniProt Q96AB3); probe binding, affinity probe, neutravidin pull-down LC-MS/MS; HEK293T, cell lysate; 5 µM, 1 h, mean of three replicates, unit not given; higher = more pulled down).
The Pearson correlation of `C=CC(=O)N1[C@H](c2ccc3c(c2)OCO3)c2[nH]c3ccccc3c2C[C@H]1C(=O)N1CCOCC1` is reported as 0.84 (Hepatocyte nuclear factor 3-alpha (FOXA1, Homo sapiens, UniProt P55317, C258A); chromatin binding, ChIP-seq; 22Rv1 expressing PHF5A Y36C and FOXA1 C258A; 20 µM, 3 h, unit not given; reference: DMSO).
`Nc1nc(SCc2ccc(Cl)cc2)nn1S(=O)(=O)c1ccc2c(c1)CCO2`: “probe labeling increase” 2.3 fold (Lysophospholipase-like protein 1 (Mus musculus, UniProt Q3UFF7); enzyme activity, activator, gel-based ABPP; purified protein; concentration not given, together with: FP-rhodamine; reference: DMSO).
For `Fc1ccc(Nc2nc(NC3CCCCC3)c3cc(Br)ccc3n2)cc1F`, the maximal inhibition was 23.1% (Beta-2 adrenergic receptor (ADRB2, Homo sapiens, UniProt P07550, C125V); β-arrestin2 recruitment, antagonist, BRET; mutant C125V; reference: isoprenaline maximal response).
Under “random coil content”, `CC[C@H](C)[C@H](NC(=O)[C@H](CC(=O)O)NC(C)=O)C(=O)N[C@H](C(=O)N[C@H](C(=O)N[C@@H](CCCNC(=N)N)C(=O)N[C@@H](Cc1ccc(O)cc1)C(=O)N[C@@H](CC(N)=O)C(=O)NCC(=O)N[C@@H](CCCCN)C(=O)N[C@H](C(=O)N[C@@H](Cc1c[nH]c2ccccc12)C(=O)N[C@@H](Cc1c[nH]c2ccccc12)C(=O)N[C@@H](CCCNC(=N)N)C(=O)O)C(C)C)[C@@H](C)O)[C@@H](C)O` is recorded as 22% (INS; circular dichroism; insulin-peptide complex; concentration not given, 0 min, 62 °C, before heat incubation, together with: insulin 350 µM).
The kinact/KI of `CC(=O)N[C@@H](CCC(C)C)C(=O)N[C@@H](CCCC(=O)O)C(=O)N[C@@H](CO)C(=O)N[C@@H](CC(=O)O)C(=O)COC(=O)c1c(C)cccc1C` is reported as 51500 M⁻¹ s⁻¹ (CASP9; enzyme activity, inhibitor).
`C#CCOC(=O)[C@]1(C)C=C(C(=O)OC(C)(C)C)C(=O)CC1`: “normalized kinase activity” 1.05 (Mitogen-activated protein kinase 8 (MAPK8, Homo sapiens, UniProt P45983); enzyme activity, D-SENSOR; 1.646 µM, single replicate).
For `CC1=NN(C)C(=O)C1=NOC(=O)c1ccc(Cl)cc1`, the inhibition was 98% (USP5; enzyme activity, inhibitor; 17 µM).
`CC[C@H](NC(=O)[C@@H](NC(=O)[C@@H](NC(C)=O)C(C)C)C(C)(C)C)C(=O)N[C@@H](CC(=O)O)C(=O)COC(=O)c1c(C)cccc1C` gave a kinact/KI of 11900 M⁻¹ s⁻¹ (CASP4; enzyme activity, inhibitor).
For `Brc1ccc(CNc2ccc3cn[nH]c3c2)s1`, the inhibition was 95% (USP5; enzyme activity, inhibitor; 17 µM).
With `Cc1ccc(/N=C2\NC(=O)/C(=C/c3cccc4ccccc34)S2)c(C(=O)O)c1` the reaction rate was -23.6 a.u. (Dihydroorotate dehydrogenase (quinone), mitochondrial (DHODH, Homo sapiens, UniProt Q02127); enzyme activity, inhibitor, DCIP reduction; 0.05 µM; higher = more activity).
The kinact/KI of `CC(=O)N[C@H](C(=O)N[C@@H](CCC(=O)O)C(=O)N[C@@H](CCCCN(C)C)C(=O)N[C@@H](CC(=O)O)C(=O)COC(=O)c1c(C)cccc1C)C(C)C` is reported as 9600 M⁻¹ s⁻¹ (CASP4; enzyme activity, inhibitor).
`O=C1Nc2ccccc2C1C1(O)C(=O)Nc2ccc(F)cc21` (centres unmarked) gave an inhibition of 4% (USP5; enzyme activity, inhibitor; 17 µM).
For `CSCC[C@H](NC(=O)[C@H](CC(C)C)NC(=O)CNC(=O)[C@@H](NC(=O)[C@H](Cc1ccccc1)NC(=O)[C@H](CO)NC(=O)[C@H](CC(=O)O)NC(=O)[C@@H](NC(=O)[C@H](CCCCN)NC(=O)[C@@H](N)Cc1c[nH]cn1)[C@@H](C)O)C(C)C)C(N)=O`, the Emax was 111 ± 11% (Substance-P receptor (TACR1, Homo sapiens, UniProt P25103); cAMP accumulation; reference: 10 µM forskolin).
For `O=C(NC[C@@H](Cc1ccc(F)cc1)N1CCC(O)(C(F)(F)F)CC1)C1(c2ccc(Cl)cc2)CCCC1`, “EC50 fold change” read 10.5 (Transient receptor potential cation channel subfamily A member 1 (TRPA1, Homo sapiens, UniProt O75762, I878A); calcium influx, agonist; reference: I878A mutant over wild type).
For `CC(=O)N[C@@H](CO)C(=O)N[C@@H](Cc1ccccc1)C(=O)N[C@@H](C)C(=O)N[C@@H](CC(=O)O)C(=O)COC(=O)c1c(C)cccc1C`, the kinact/KI was 800 M⁻¹ s⁻¹ (CASP4; enzyme activity, inhibitor).
`CC(=O)N[C@@H](CCCCN)C(=O)N[C@H](C(=O)N[C@@H](Cc1ccc(O)cc1)C(=O)N[C@@H](Cc1ccc(O)cc1)C(=O)N[C@@H](CCCNC(=N)N)C(=O)N[C@@H](Cc1ccc(O)cc1)C(=O)N[C@@H](CC(N)=O)C(=O)NCC(=O)N[C@@H](CCCCN)C(=O)N[C@H](C(=O)N[C@@H](Cc1c[nH]c2ccccc12)C(=O)N[C@@H](Cc1c[nH]c2ccccc12)C(=O)N[C@@H](CCCNC(=N)N)C(=O)O)C(C)C)C(C)C` — result for “random coil content”: 45% (INS; circular dichroism; insulin-peptide complex; concentration not given, 800 min, 62 °C, heat incubation, together with: insulin 350 µM).
The hepatic clearance of `O=C(CCC(F)(F)F)Nc1ccc([C@H]2[C@@H](F)[C@@H](F)C[C@@H](F)[C@H]2F)cc1` is reported as 25 mL/min/kg (hepatocyte stability; cryopreserved rat hepatocytes; 1 µM).
The efficacy of `CC[C@H](C)[C@H](NC(=O)[C@H](Cc1ccccc1)NC(=O)[C@H](CCC(=O)O)NC(=O)[C@H](CCCCN)NC(=O)[C@H](C)NC(=O)[C@H](C)NC(=O)[C@H](CCC(N)=O)NC(=O)CNC(=O)[C@H](CCC(=O)O)NC(=O)[C@H](CC(C)C)NC(=O)[C@H](Cc1ccc(O)cc1)NC(=O)[C@H]1CCC[C@@H]1NC(=O)[C@H](CO)NC(=O)C(C)(C)NC(=O)[C@H](CC(=O)O)NC(=O)[C@H](CO)NC(=O)[C@@H](NC(=O)[C@H](Cc1ccccc1)NC(=O)[C@@H](NC(=O)CNC(=O)[C@H](CCC(=O)O)NC(=O)C(C)(C)NC(=O)[C@@H](N)Cc1c[nH]cn1)[C@@H](C)O)[C@@H](C)O)C(=O)N[C@@H](C)C(=O)N[C@@H](Cc1c[nH]c2ccccc12)C(=O)N[C@@H](CC(C)C)C(=O)N[C@H](C(=O)N[C@@H](CCCCN)C(=O)NCC(=O)N[C@@H](CCCNC(=N)N)C(N)=O)C(C)C` is reported as 95 ± 3% (Glucagon-like peptide 1 receptor (GLP1R, Homo sapiens, UniProt P43220); cAMP production, agonist, GloSensor luminescence; HEK293; 15 min; reference: GLP-1).
The kobs/[I] of `CC(=O)N[C@@H](Cc1c[nH]c2ccccc12)C(=O)N[C@@H](CCCNC(=N)N)C(=O)N[C@@H](CO)C(=O)N[C@@H](CC(=O)O)C(=O)COC(=O)c1c(C)cccc1C` is reported as 16600 M⁻¹ s⁻¹ (CASP4; inhibitor; recombinant enzyme).
`C=CC(=O)N1CCCC(n2c(=O)c3ncccc3n(Cc3ccc(Oc4ccccc4)cc3)c2=O)C1` (centres unmarked) — result for “melting temperature shift”: -2.7 (Putative protein-lysine deacylase ABHD14B (Homo sapiens, UniProt Q96IU4); thermal proteome profiling; unit not given; reference: untreated control).
`CCCCCC=CC=C1C(=O)C=CC1CC=CCCCC(=O)O` (centres unmarked) — result for “isoTOP-ABPP competition ratio”: 1.7 (Tubulin-specific chaperone D (Homo sapiens, UniProt Q9BTW9); competitive isoTOP-ABPP, refers to: TBCD cysteine peptide; Ramos soluble proteome; 100 µM, together with: iodoacetamide probe; reference: DMSO over compound-treated, higher = stronger cysteine blockade).
With `CCN(CC)C(CO)c1cccc2c(C)c(C)oc12` (centres unmarked) the fold change was 0.998 and 1.02 and 1.01 and 0.993 (Lysophosphatidic acid receptor 1 (LPAR1, Homo sapiens, UniProt Q92633, W271A); G-protein dissociation, agonist, NanoBiT; HEK-293T; 10 pM, W271A mutant; reference: baseline luminescence).
`CCCCCC(O)/C=C/C=O` (centres unmarked) — result for “probe labelling ratio”: 0.5 (Thioredoxin (TXN, Homo sapiens, UniProt P10599); acylphosphate-ATP probe SILAC-ABPP; ZAK-transfected HEK293T; 100 µM, together with: acylphosphate-ATP probe; reference: DMSO over compound-treated).
Under “BLI binding response”, `Cn1c(=O)n(C2CCC(=O)NC2=O)c2ccc(C3CCN(CC(=O)Nc4cccc(CS(=O)(=O)N5CC[C@H](Nc6cccc(-c7sc(C(=O)O)c(OCC(=O)O)c7Cl)c6)CC5(C)C)c4)CC3)cc21` (some centres unmarked) is recorded as 0.081 a.u. and 0.0886 a.u. (Tyrosine-protein phosphatase non-receptor type 2 (PTPN2, Homo sapiens, UniProt P17706); degrader, bio-layer interferometry; 15.6 nM, biotinylated protein immobilised; higher = more binding).
The kinact/KI of `CC(=O)N[C@@H](CC(C)C)C(=O)N[C@@H](CCC(N)=O)C(=O)N[C@@H](CO)C(=O)N[C@@H](CC(=O)O)C(=O)COC(=O)c1c(C)cccc1C` is reported as 80300 M⁻¹ s⁻¹ (CASP9; enzyme activity, inhibitor).
The Emax of `COc1ccc(C2(C(=O)N3CCC(Nc4nc5ccccc5c(=O)[nH]4)CC3)CC2)cc1` is reported as 72.6 ± 2.5% (MRGPRD (Homo sapiens, UniProt Q8TDS7, K102A); miniGq recruitment, agonist, BRET; HEK293T; K102A mutant; reference: wild type).
`NCc1c[nH]c2nc(N)[nH]c(=O)c12` has a Kd of 2.8 nM (T1, preQ1 riboswitch RNA A13 2-aminopurine (Thermoanaerobacter tengcongensis); 2-aminopurine fluorescence titration; apo state, without Mg2+, read off a plot).
`O=C1CC(c2ccoc2)c2ccc(NC(=O)c3ccccc3)cc2N1` (centres unmarked) — result for “fractional activity at saturation”: at most 0.524 (Aromatase (CYP19A1, Homo sapiens, UniProt P11511); enzyme activity, inhibitor; concentration not given, together with: MFC substrate).
The hepatic clearance of `O=C(NC1CCOCC1)c1ccc(C2CCCCC2)cc1` is reported as 19 mL/min/kg (hepatocyte stability; cryopreserved human hepatocytes; 1 µM).
`O=C1c2sc(-c3ccc(N4CCC(CO)CC4)nc3F)nc2CCN1c1cccnc1` has an inhibition of -1% (Type-2 angiotensin II receptor (AGTR2, Homo sapiens, UniProt P50052); ligand displacement, radioligand; 1 µM).

Some of these lines once more:
`CC(C)C[C@H](NC(=O)[C@@H](NC(=O)[C@H](Cc1ccccc1)NC(=O)c1ccc(C(C)(C)C)cc1)C(C)C)C(=O)N[C@@H](CCCCN(C)C1CC2CCC1C2)C(=O)N[C@@H](CO)C(N)=O` (some centres unmarked) gave a selectivity ratio of 21 (Chromobox protein homolog 8 (Homo sapiens, UniProt Q9HC52); TR-FRET displacement; reference: IC50 CBX7 over IC50 CBX8).
`N#CN1CC[C@H](C(=O)Nc2nc3c(s2)CN(C(=O)Cn2cc(COCCOCCOCCOCCNC(=O)CCCC[C@@H]4SC[C@@H]5NC(=O)N[C@@H]54)nn2)CC3)C1` has an iBAQ abundance of 3.83e+08 (Isochorismatase domain-containing protein 2 (ISOC2, Homo sapiens, UniProt Q96AB3); probe binding, affinity probe, neutravidin pull-down LC-MS/MS; HEK293T, cell lysate; 5 µM, 1 h, mean of three replicates, unit not given; higher = more pulled down).
The Pearson correlation of `C=CC(=O)N1[C@H](c2ccc3c(c2)OCO3)c2[nH]c3ccccc3c2C[C@H]1C(=O)N1CCOCC1` is reported as 0.84 (Hepatocyte nuclear factor 3-alpha (FOXA1, Homo sapiens, UniProt P55317, C258A); chromatin binding, ChIP-seq; 22Rv1 expressing PHF5A Y36C and FOXA1 C258A; 20 µM, 3 h, unit not given; reference: DMSO).
`Nc1nc(SCc2ccc(Cl)cc2)nn1S(=O)(=O)c1ccc2c(c1)CCO2`: “probe labeling increase” 2.3 fold (Lysophospholipase-like protein 1 (Mus musculus, UniProt Q3UFF7); enzyme activity, activator, gel-based ABPP; purified protein; concentration not given, together with: FP-rhodamine; reference: DMSO).
